Measurements gathered from unrelated publications.
± marks the error that the study gave.
Pick1 PDZ domain: PRKCA-binding protein, PDZ domain (Pick1, Rattus norvegicus, UniProt Q9EP80)
MAPK8: Mitogen-activated protein kinase 8 (MAPK8, Homo sapiens, UniProt P45983)
SPHK2: Sphingosine kinase 2 (SPHK2, Homo sapiens, UniProt Q9NRA0)
Cd1d1 dimeric Ig fusion: Cd1d1, dimeric Ig fusion (Mus musculus, UniProt P11609)
Glutamate receptor ionotropic, kainate 3: Glutamate receptor ionotropic, kainate 3 (Rattus norvegicus, UniProt P42264)
Sigmar1: Sigma non-opioid intracellular receptor 1 (Sigmar1, Rattus norvegicus, UniProt Q9R0C9)

Chains of the proteins cited; added tags and fusions are not shown. Lines headed by an entry give the natural chain unless they say otherwise; changes in a name come on top. Residues count along the entry.
UniProt Q9EP80, whole entry: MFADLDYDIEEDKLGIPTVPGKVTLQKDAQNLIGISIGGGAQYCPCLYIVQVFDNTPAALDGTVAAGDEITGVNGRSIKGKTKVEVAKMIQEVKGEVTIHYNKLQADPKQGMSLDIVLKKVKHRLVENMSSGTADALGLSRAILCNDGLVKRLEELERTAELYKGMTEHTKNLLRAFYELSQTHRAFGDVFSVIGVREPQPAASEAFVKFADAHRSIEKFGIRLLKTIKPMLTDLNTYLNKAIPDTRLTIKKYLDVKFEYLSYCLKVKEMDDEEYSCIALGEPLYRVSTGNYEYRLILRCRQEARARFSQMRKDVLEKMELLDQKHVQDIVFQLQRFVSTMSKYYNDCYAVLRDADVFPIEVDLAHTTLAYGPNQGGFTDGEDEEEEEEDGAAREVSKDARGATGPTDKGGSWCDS
UniProt P45983, whole entry: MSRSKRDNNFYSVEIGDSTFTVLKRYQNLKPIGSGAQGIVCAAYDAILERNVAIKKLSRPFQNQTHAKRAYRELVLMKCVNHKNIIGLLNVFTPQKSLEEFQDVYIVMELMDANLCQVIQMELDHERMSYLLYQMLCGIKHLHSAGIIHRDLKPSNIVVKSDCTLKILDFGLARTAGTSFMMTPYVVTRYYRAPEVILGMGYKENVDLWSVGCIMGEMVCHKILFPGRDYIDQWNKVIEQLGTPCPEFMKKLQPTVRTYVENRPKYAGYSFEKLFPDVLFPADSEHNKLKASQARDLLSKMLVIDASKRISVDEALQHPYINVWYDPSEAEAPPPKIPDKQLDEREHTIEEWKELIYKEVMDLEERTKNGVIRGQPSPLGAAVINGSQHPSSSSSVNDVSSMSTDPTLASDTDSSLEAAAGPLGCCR
UniProt P42264, 32-919 limits assumed: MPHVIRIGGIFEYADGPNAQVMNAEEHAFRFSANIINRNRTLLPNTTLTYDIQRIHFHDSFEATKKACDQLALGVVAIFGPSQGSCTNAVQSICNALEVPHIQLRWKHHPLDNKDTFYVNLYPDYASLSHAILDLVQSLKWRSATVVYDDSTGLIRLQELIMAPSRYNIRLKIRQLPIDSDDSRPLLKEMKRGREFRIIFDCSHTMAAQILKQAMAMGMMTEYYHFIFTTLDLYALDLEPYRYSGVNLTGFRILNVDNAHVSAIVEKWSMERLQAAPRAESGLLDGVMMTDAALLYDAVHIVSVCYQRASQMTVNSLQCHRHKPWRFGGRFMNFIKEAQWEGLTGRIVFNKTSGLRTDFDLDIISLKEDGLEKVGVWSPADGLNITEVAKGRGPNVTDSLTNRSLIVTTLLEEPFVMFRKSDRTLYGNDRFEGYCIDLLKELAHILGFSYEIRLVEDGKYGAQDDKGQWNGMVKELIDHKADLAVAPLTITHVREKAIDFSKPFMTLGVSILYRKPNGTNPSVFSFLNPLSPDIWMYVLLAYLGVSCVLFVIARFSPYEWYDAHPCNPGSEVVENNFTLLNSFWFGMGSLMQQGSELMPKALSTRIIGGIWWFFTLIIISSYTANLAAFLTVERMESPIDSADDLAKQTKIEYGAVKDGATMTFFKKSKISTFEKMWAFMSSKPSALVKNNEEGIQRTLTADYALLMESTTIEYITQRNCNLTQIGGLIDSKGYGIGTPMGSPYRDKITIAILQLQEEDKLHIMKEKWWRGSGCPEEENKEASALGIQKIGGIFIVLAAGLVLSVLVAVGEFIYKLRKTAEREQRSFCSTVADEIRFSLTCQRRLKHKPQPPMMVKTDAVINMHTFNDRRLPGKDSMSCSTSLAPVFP
UniProt Q9R0C9, whole entry: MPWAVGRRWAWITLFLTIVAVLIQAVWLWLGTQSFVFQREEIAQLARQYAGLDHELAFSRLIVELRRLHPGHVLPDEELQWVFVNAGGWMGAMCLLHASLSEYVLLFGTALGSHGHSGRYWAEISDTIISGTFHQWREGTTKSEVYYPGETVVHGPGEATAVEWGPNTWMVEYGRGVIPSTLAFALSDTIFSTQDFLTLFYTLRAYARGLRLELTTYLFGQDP
UniProt Q04609, whole entry: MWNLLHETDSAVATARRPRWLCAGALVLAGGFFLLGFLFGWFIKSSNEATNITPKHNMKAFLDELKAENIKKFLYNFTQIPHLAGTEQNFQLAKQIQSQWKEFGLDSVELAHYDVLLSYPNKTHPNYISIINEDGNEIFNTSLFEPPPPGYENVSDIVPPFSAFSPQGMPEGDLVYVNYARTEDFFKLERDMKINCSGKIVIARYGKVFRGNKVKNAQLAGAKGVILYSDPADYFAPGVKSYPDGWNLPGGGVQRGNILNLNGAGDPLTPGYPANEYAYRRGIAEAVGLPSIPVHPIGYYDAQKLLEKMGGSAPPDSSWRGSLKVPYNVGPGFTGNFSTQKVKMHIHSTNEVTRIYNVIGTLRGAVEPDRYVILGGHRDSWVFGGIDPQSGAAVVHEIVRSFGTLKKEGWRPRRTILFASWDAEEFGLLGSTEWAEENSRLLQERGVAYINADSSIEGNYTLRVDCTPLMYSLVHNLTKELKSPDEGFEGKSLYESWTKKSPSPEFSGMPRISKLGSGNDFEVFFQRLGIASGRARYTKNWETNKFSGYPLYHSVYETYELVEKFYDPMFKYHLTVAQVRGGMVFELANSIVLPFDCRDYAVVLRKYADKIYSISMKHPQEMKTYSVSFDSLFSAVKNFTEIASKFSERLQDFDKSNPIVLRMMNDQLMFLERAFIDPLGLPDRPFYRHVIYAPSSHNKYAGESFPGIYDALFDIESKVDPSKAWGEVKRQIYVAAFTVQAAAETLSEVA
UniProt Q9U419, whole entry: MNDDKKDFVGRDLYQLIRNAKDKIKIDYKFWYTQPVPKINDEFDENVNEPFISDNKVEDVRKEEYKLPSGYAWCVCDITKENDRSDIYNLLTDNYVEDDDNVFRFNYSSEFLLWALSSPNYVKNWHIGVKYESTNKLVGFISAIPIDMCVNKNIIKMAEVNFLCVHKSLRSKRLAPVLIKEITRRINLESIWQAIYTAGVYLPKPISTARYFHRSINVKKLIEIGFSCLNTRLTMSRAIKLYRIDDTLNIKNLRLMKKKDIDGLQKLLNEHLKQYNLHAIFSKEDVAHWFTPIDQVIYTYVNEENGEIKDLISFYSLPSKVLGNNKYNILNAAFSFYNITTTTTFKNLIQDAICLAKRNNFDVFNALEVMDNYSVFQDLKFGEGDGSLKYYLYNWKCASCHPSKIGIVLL
UniProt P13569, whole entry: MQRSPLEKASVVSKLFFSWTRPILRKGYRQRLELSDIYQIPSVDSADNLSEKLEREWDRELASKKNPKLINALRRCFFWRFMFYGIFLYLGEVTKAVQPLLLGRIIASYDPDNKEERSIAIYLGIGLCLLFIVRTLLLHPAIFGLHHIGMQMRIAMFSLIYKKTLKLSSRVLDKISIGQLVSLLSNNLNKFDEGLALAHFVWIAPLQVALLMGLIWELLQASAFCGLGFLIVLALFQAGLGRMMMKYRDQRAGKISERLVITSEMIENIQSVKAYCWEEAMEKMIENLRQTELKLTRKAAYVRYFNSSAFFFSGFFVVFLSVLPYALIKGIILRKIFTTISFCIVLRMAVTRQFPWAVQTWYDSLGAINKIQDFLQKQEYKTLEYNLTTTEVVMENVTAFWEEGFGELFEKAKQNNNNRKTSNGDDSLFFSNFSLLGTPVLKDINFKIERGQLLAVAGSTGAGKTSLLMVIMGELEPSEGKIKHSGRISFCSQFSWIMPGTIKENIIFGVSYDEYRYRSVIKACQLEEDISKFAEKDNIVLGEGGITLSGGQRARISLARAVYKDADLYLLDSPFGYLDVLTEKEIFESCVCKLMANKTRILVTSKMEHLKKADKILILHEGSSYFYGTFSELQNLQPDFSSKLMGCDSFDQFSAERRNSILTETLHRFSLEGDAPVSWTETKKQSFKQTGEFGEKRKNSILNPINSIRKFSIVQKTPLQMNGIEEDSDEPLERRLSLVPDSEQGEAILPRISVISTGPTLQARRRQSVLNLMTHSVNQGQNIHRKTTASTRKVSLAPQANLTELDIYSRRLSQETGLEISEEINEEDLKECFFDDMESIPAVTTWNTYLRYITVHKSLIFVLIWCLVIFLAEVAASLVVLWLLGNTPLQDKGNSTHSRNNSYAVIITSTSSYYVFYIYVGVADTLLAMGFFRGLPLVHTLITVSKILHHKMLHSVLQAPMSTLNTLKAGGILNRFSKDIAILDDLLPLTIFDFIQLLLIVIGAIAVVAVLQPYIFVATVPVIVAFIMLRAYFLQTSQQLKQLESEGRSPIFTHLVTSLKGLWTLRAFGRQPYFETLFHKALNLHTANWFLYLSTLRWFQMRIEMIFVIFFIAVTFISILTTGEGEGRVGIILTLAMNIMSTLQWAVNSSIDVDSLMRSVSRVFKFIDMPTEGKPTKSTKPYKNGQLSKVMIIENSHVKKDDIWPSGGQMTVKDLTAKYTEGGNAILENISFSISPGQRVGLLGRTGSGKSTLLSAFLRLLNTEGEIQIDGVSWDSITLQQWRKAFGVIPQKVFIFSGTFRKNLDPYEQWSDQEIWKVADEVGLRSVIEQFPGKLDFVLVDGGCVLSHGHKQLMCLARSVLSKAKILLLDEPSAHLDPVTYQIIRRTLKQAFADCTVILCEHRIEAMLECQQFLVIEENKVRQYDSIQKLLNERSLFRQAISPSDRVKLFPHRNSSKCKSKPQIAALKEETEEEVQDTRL
UniProt P28867, 231-280 limits assumed: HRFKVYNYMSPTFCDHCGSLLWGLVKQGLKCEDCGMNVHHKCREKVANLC
UniProt O14976, 12-347 limits assumed: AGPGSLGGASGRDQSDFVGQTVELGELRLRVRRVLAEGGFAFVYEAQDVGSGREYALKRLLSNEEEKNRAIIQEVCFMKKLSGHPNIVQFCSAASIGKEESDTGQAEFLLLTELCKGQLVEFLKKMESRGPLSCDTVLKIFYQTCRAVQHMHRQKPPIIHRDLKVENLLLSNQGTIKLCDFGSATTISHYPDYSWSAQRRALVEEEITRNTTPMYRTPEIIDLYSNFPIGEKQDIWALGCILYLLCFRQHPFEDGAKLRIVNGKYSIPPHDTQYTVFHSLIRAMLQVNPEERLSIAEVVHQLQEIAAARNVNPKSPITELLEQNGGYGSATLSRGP
UniProt Q05655, whole entry: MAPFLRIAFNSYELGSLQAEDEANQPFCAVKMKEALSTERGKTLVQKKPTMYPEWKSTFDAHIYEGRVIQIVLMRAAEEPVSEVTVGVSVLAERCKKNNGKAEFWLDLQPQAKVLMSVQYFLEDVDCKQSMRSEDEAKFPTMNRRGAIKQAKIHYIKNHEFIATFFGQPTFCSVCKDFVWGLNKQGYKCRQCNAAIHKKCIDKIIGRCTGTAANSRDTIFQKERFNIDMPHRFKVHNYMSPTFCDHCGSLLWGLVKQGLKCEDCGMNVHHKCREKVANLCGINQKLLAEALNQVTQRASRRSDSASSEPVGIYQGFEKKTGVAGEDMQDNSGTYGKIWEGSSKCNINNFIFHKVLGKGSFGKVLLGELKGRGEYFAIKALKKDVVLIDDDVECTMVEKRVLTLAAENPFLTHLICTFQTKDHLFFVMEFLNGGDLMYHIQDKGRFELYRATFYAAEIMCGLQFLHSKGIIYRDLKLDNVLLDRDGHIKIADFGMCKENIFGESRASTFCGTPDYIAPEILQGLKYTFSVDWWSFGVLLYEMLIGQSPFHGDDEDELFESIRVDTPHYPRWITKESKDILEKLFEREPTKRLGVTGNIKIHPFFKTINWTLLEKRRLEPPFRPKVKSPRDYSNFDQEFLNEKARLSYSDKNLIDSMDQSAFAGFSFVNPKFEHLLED
UniProt P47900, whole entry: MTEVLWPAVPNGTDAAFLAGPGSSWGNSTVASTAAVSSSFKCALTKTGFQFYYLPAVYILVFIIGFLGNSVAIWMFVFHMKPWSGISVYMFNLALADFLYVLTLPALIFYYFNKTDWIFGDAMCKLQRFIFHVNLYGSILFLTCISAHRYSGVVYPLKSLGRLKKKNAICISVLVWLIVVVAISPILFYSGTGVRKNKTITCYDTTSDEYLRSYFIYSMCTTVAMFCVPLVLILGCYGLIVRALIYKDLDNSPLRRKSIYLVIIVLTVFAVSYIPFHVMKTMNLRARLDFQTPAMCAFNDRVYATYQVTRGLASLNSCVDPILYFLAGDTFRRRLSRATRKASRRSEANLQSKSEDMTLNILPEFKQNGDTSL
UniProt Q07440, 1-152 P104K/C113S limits assumed: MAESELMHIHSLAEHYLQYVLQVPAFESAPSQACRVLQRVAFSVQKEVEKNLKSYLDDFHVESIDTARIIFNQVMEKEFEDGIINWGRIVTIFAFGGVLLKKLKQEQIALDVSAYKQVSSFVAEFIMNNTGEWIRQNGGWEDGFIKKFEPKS
UniProt Q16539, whole entry: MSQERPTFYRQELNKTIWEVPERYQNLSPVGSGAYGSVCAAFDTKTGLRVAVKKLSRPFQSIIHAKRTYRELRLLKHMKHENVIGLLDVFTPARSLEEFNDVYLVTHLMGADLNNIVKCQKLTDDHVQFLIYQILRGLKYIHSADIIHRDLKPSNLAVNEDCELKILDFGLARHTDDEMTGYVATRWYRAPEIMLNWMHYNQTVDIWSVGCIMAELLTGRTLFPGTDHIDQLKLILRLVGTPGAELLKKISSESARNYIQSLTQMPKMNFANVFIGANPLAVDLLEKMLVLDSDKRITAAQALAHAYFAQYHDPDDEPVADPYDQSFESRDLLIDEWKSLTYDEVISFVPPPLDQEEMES

With `CCOC(=O)NC(=O)/C(C#N)=C/c1ccc(Cl)c(C(F)(F)F)c1` the Ki was 7200 ± 700 nM (Pick1 PDZ domain; binding, fluorescence polarization; with: labelled hDAT C-terminal peptide).
`C#CCCCOC(=O)[C@]1(C)C=C(C(=O)OC(C)(C)C)C(=O)CC1` has a Ki of 1700 ± 400 nM (MAPK8; D-peptide displacement, fluorescence polarization).
For `CCCCCCCCc1ccc(C2CCC([N+](C)(C)CCC)CC2)cc1` (stereo not drawn), the Ki was 8000 ± 1000 nM (SPHK2; enzyme activity, inhibitor, radiometric flash-plate; cell lysate; with: sphingosine 5 µM).
For `CCCCCCCCCCCCCC[C@@H](O)[C@@H](O)[C@H](CO[C@H]1O[C@H](CO)[C@H](O)[C@H](O)[C@H]1O)NC(=O)CCCCCc1ccccc1`, the Ki was 2100 ± 800 nM (Cd1d1 dimeric Ig fusion; binding, competitive microarray binding; with: printed glycolipid 100 µM).
`O=C(O)c1cc(C(=O)N[C@@H](Cc2ccc(O)cc2)C(=O)O)cc([C@H]2CCN[C@@H]2C(=O)O)c1` has a Ki of 5690 ± 900 nM (Glutamate receptor ionotropic, kainate 3; binding, radioligand binding; Sf9 membranes; homomeric receptor, with: [3H]kainate).
The Ki of `CCC[C@H](O)[C@H](NC[C@@H]1Cc2cccc(c2)CCCCc2cc(cc(N(CCC)S(C)(=O)=O)c2)C(=O)N1)C(=O)NCC(C)C` is reported as 99 ± 29 nM (Beta-secretase 2 (BACE2, Homo sapiens, UniProt Q9Y5Z0, E331A); enzyme activity, inhibitor, fluorogenic peptide substrate; catalytic domain).
`CCCCCCCCCCCCc1ccc(C(=O)NC2(C(=N)N)CC2)cc1` gave a Ki of 500 nM (SPHK2; inhibitor, TLC).
`CC(C)C[C@H](NC(=O)c1cc(C(=O)O)cc([C@H]2CCN[C@@H]2C(=O)O)c1)C(=O)O` has a Ki of 20600 ± 3100 nM (Glutamate receptor ionotropic, kainate 3; binding, radioligand binding; Sf9 membranes; homomeric receptor, with: [3H]kainate).
`CC1(C)C(=CC=CC=CC=CC2=[N+](CCCCS(=O)(=O)[O-])c3ccc4ccccc4c3C2(C)C)N(CCCCCC(=O)NCCCC[C@H](NC(=O)N[C@@H](CCC(=O)O)C(=O)O)C(=O)O)c2ccc3ccccc3c21` has a Ki of 0.7 ± 0.01 nM (Glutamate carboxypeptidase 2 (FOLH1, Homo sapiens, UniProt Q04609); enzyme activity, inhibitor; compound in DMSO, with: [3H]NAAG 30 nM).
The Ki of `c1ccc(Cc2noc(-c3cccc(OC4CCNCC4)c3)n2)cc1` is reported as 2600 nM (Glycylpeptide N-tetradecanoyltransferase (Plasmodium falciparum, UniProt Q9U419); enzyme activity, inhibitor, CPM fluorescence; with: substrate 4.0 µM).
`O=C(Nc1cccc(F)c1)c1cc(S(=O)(=O)N2CCOCC2)c(Cl)cc1Cl` has a Ki of 14.6 nM (Autotaxin (ENPP2, Homo sapiens, UniProt Q13822); enzyme activity; with: FS-3).
The Ki of `CCCCCCCCC(CCCCCC=CCCCCCC(CCCCCCCC)C(=O)OCC1(CO)CC(=C(C)C)C(=O)O1)C(=O)OCC1(CO)CC(=C(C)C)C(=O)O1` (racemic) is reported as 50 ± 13 nM (Protein kinase C alpha type (PRKCA, Homo sapiens, UniProt P17252); binding, [3H]PDBu competition; with: phosphatidylserine 100 µg/mL).
The Ki of `C/C(=N\OCCN1CCN(C)CC1)c1ccc(C(F)(F)F)cc1` is reported as 55.2 ± 3.18 nM (Sigmar1; radioligand binding; rat).
With `CCCCOC(=O)NC(=O)/C(C#N)=C/c1ccc(Cl)c(Cl)c1` the Ki was 12000 ± 2800 nM (Pick1 PDZ domain; binding, fluorescence polarization; with: labelled hDAT C-terminal peptide).
`O=C(O)CNC(=O)c1cc(C(=O)O)cc([C@H]2CCN[C@@H]2C(=O)O)c1` gave a Ki of 600 nM (NMDA receptor (rat); binding, radioligand binding; rat cortical synaptosomes; with: [3H]CGP39653).
For `COc1c(Br)cc(/C=N/NC(=O)CNc2ccc(Cl)cc2)c(O)c1Br`, the Ki was 25000 to 50000 nM (Cystic fibrosis transmembrane conductance regulator (CFTR, Homo sapiens, UniProt P13569); apical chloride current, inhibitor; FRT cells expressing CFTR; basolateral membrane permeabilised).
For `CCCCCCCCCCCCCC[C@@H](O)[C@@H](O)[C@H](CO[C@H]1O[C@H](CO)[C@H](O)[C@H](O)[C@H]1O)NC(=O)CCCCCCCCCCc1ccc(F)cc1`, the Ki was 270 ± 80 nM (Cd1d1 dimeric Ig fusion; binding, competitive microarray binding; with: printed glycolipid 100 µM).
With `COC(=O)C1(C)C=C(c2ncc(C)o2)C(=O)CC1` (stereo not drawn) the Ki was 112000 ± 32700 nM (MAPK8; D-peptide displacement, fluorescence polarization).
`CCCCCCCCC(CCCCC=CCCCCC(CCCCCCCC)C(=O)OCC1(CO)CC(=C(C)C)C(=O)O1)C(=O)OCC1(CO)CC(=C(C)C)C(=O)O1` (racemic) gave a Ki of 0.8 ± 0.05 nM (Protein kinase C delta type, C1b domain (Prkcd, Mus musculus, UniProt P28867); binding, [3H]PDBu competition; 5 min, 37 °C, with: phosphatidylserine 100 µg/mL).
For `COc1cc(Nc2ccnc3cc(-c4ccncc4)ccc23)cc(OC)c1OC`, the Ki was 1.5 nM (Cyclin-G-associated kinase (GAK, Homo sapiens, UniProt O14976)).
`CCCc1cc2c(N3CCn4c(nnc4C(F)(F)F)C3)nc(OCCF)nc2s1` [isotope labelled] gave a Ki of 24.5 ± 9.3 nM (P2Y purinoceptor 12 (P2ry12, Rattus norvegicus, UniProt Q9EPX4); binding, antagonist, competitive displacement; rat, membranes).
`CCOC(=O)C1(C)C=CC(=O)C(C(=O)OC)=C1` (stereo not drawn) has a Ki of > 200000 nM (MAPK8; docking peptide binding, competitive inhibitor, fluorescence polarization; with: labelled JIP1 peptide).
`CCCCCCCCC(CCCCCCC=CCCCCCCC(CCCCCCCC)C(=O)OCC1(CO)CC(=C(C)C)C(=O)O1)C(=O)OCC1(CO)CC(=C(C)C)C(=O)O1` (racemic) has a Ki of 16.6 ± 2.1 nM (Protein kinase C delta type (PRKCD, Homo sapiens, UniProt Q05655); binding, [3H]PDBu competition; with: phosphatidylserine 100 µg/mL).
The Ki of `O[C@@H](c1ccc(F)cc1)C(F)(F)CCN1CCC(O)(c2ccc(Cl)cc2)CC1` (racemic) is reported as 34100 ± 6490 nM (D(3) dopamine receptor (DRD3, Homo sapiens, UniProt P35462)).
The Ki of `CNc1nc(C#CCCc2cn(CCNC(C)=O)nn2)nc2c1ncn2[C@H]1C[C@H](OP(=O)(O)O)[C@]2(COP(=O)(O)O)C[C@H]12` is reported as 300 ± 200 nM (P2Y purinoceptor 1 (P2RY1, Homo sapiens, UniProt P47900); binding, radioligand binding; Sf9 cell membranes; 30 min, 4 °C, with: iodinated P2Y1 antagonist radioligand).
The Ki of `N=C(N)NCCC[C@H](NC(=O)c1cc(C(=O)O)cc([C@H]2CCN[C@@H]2C(=O)O)c1)C(=O)O` is reported as 2780 ± 1410 nM (Glutamate receptor ionotropic, kainate 3; binding, radioligand binding; Sf9 membranes; homomeric receptor, with: [3H]kainate).
For `Cc1ccc(NC(=O)c2cc3ccccc3c(N=Nc3cc(S(=O)(=O)O)ccc3O)c2O)c(C)c1`, the Ki was 1380 nM (Bcl-2-related protein A1 (Mus musculus, UniProt Q07440, C113S/P104K); binding, inhibitor, fluorescence polarization competition; with: FITC-Noxa peptide, Kd 20 nM).
`COC(=O)[C@@]1(C)C=C(C(=O)OCc2ccccc2)C(=O)CC1` has a Ki of 27600 ± 3900 nM (MAPK8; D-peptide displacement, fluorescence polarization).
`O=C(NCc1ccc(-c2cnco2)cc1)[C@@H]1C[C@@H](O)CN1C(=O)c1cccc(O)c1` has a Ki of 13300 nM (von Hippel-Lindau disease tumor suppressor, with elongin B, C (VHL, Homo sapiens, UniProt P40337); inhibitor, fluorescence polarization; VHL-elonginB-elonginC complex; 1% DMSO, with: FAM-DEALA-Hyp-YIPD peptide).
`COC(=O)C1(C)C=C(C(=O)OCc2ccccc2)C(=O)C1` (stereo not drawn) has a Ki of 9400 ± 2100 nM (Mitogen-activated protein kinase 14 (MAPK14, Homo sapiens, UniProt Q16539); D-peptide displacement, fluorescence polarization).
`CCOC(=O)NC(=O)/C(C#N)=C/c1ccc(Br)c([N+](=O)[O-])c1` gave a Ki of 11000 ± 1200 nM (Pick1 PDZ domain; binding, fluorescence polarization; with: labelled hDAT C-terminal peptide).
For `CC(C)(C)OC(=O)C1=CC(C)(C(=O)c2ccccc2)CCC1=O` (stereo not drawn), the Ki was 14500 ± 2700 nM (MAPK8; docking peptide binding, competitive inhibitor, fluorescence polarization; with: labelled JIP1 peptide).
With `C/C(=N\OCCN1CCC(N2CCOCC2)CC1)c1ccc(C(F)(F)F)cc1` the Ki was 136 ± 5.16 nM (Sigmar1; radioligand binding; rat).

For quick reference, copied from above:
`C#CCCCOC(=O)[C@]1(C)C=C(C(=O)OC(C)(C)C)C(=O)CC1` has a Ki of 1700 ± 400 nM (MAPK8; D-peptide displacement, fluorescence polarization).
For `CCCCCCCCc1ccc(C2CCC([N+](C)(C)CCC)CC2)cc1` (stereo not drawn), the Ki was 8000 ± 1000 nM (SPHK2; enzyme activity, inhibitor, radiometric flash-plate; cell lysate; with: sphingosine 5 µM).
